Experimental data collected from several papers.
Each line is one published result; not all experiments were run side by side. ± marks the error that the study gave.
CYP27A1: Sterol 26-hydroxylase, mitochondrial (CYP27A1, Homo sapiens, UniProt Q02318)
UniProt Q02318, sequence (whole entry, looked up): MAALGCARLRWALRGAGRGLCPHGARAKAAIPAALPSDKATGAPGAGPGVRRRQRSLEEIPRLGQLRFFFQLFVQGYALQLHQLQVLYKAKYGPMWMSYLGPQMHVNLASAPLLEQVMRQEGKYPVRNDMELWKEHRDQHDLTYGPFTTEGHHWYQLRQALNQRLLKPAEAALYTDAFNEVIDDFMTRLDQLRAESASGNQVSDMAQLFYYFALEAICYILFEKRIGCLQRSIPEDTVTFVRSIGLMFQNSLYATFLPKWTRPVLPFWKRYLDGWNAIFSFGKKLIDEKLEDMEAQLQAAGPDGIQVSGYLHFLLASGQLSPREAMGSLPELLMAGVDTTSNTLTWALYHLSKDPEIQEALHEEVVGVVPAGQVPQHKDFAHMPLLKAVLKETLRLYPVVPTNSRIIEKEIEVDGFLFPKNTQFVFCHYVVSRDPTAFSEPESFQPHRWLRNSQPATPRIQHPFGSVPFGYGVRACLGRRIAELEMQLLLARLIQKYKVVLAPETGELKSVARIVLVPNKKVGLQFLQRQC
Peptidyl-prolyl cis-trans isomerase A: Peptidyl-prolyl cis-trans isomerase A (Rattus norvegicus, UniProt P10111)
UniProt P10111, sequence (whole entry, looked up): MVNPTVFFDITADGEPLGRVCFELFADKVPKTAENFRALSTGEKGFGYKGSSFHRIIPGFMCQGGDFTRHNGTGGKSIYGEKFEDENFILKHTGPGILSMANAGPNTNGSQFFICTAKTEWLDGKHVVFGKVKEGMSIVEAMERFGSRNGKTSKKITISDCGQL
KCNH2: Voltage-gated inwardly rectifying potassium channel KCNH2 (KCNH2, Homo sapiens, UniProt Q12809)
UniProt Q12809, sequence (whole entry, looked up): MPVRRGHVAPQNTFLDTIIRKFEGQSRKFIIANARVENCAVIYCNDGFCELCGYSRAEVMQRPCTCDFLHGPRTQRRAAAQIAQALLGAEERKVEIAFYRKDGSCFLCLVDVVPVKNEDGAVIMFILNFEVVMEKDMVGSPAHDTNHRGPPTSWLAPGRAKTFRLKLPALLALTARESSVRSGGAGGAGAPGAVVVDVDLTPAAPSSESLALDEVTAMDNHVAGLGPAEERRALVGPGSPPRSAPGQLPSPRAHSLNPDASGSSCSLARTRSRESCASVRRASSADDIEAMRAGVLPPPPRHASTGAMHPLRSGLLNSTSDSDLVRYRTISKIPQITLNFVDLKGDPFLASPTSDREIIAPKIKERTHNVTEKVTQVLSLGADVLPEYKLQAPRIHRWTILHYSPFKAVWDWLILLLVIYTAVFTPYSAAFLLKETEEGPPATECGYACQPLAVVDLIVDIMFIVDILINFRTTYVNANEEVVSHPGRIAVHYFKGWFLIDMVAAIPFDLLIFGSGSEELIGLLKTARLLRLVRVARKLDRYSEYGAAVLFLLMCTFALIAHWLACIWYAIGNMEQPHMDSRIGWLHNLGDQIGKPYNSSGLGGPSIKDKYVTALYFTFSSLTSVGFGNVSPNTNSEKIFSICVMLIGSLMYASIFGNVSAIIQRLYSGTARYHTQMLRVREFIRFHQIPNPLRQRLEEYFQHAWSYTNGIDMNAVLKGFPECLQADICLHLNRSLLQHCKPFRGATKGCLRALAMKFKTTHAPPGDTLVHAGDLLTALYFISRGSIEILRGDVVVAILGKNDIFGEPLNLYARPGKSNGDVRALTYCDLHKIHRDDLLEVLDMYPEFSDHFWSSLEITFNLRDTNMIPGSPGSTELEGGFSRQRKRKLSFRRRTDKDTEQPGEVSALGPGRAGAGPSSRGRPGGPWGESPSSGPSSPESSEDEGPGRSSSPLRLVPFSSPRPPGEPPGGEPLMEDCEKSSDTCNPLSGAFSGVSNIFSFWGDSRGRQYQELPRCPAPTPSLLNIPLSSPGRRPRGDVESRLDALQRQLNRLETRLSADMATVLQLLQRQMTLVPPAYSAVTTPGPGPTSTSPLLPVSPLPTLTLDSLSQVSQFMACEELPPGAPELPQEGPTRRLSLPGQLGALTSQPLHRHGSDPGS
CYP3A4: Cytochrome P450 3A4 (CYP3A4, Homo sapiens, UniProt P08684)
UniProt P08684, sequence (whole entry, looked up): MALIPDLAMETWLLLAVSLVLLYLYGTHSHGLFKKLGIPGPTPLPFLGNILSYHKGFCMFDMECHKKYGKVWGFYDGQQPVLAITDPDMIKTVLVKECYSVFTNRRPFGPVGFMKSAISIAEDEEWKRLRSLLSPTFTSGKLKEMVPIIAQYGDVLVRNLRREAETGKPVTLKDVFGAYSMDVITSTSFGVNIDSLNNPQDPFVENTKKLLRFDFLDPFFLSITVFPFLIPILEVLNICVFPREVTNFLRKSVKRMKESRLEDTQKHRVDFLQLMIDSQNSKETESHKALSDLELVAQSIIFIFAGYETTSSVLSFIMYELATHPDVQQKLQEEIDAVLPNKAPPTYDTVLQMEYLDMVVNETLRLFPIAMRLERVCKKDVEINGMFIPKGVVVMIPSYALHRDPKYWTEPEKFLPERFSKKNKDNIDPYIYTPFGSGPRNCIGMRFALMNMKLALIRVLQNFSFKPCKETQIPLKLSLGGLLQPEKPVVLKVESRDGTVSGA
UniProt Q8VHW5, sequence (whole entry, looked up): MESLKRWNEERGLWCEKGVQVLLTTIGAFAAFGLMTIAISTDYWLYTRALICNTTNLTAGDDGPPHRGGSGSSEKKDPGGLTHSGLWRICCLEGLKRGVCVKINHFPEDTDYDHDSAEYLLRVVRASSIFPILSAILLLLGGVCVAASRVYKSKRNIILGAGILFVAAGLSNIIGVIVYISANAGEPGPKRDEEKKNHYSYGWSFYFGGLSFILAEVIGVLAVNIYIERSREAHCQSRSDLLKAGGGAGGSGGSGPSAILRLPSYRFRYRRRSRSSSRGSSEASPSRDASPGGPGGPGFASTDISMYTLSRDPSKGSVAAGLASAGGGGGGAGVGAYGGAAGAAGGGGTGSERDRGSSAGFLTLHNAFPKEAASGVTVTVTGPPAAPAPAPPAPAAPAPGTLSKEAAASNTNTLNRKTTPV
UniProt Q9CPV9, sequence (whole entry, looked up): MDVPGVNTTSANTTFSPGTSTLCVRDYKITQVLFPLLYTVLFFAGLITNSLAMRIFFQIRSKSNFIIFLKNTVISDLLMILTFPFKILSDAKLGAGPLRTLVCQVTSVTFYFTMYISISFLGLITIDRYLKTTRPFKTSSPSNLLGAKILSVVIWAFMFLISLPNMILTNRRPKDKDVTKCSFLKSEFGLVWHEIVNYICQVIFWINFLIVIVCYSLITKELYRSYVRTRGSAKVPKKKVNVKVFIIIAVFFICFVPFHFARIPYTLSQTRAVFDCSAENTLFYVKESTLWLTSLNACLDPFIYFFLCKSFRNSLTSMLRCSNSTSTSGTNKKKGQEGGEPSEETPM
UniProt P10635, sequence (whole entry, looked up): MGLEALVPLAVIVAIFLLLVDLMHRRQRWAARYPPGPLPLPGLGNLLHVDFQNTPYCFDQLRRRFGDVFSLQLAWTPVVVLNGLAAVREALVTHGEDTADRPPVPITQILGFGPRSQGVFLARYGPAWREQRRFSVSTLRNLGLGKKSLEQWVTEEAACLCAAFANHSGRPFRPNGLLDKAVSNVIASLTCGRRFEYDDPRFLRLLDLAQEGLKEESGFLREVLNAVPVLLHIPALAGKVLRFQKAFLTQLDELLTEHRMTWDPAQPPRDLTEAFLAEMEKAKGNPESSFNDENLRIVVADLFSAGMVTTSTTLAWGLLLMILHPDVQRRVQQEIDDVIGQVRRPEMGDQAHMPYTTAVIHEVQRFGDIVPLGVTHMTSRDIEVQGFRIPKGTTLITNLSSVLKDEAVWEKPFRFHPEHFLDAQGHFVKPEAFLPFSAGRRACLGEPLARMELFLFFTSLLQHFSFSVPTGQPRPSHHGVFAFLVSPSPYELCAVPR
UniProt P11980, sequence (whole entry, looked up): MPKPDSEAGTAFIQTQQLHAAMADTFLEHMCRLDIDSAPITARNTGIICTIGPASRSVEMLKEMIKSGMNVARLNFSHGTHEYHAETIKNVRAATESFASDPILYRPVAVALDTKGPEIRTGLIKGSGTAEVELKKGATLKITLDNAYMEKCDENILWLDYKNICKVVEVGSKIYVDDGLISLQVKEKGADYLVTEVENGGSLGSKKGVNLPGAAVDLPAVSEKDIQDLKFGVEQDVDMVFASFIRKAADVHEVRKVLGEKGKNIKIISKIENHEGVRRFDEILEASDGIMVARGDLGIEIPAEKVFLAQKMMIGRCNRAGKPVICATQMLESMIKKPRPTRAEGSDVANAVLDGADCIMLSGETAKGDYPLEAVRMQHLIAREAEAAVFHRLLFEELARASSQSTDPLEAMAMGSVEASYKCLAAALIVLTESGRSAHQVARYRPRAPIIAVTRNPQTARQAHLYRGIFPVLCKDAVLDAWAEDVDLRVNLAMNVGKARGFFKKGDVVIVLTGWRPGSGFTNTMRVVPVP
UniProt P08253, sequence (whole entry, looked up): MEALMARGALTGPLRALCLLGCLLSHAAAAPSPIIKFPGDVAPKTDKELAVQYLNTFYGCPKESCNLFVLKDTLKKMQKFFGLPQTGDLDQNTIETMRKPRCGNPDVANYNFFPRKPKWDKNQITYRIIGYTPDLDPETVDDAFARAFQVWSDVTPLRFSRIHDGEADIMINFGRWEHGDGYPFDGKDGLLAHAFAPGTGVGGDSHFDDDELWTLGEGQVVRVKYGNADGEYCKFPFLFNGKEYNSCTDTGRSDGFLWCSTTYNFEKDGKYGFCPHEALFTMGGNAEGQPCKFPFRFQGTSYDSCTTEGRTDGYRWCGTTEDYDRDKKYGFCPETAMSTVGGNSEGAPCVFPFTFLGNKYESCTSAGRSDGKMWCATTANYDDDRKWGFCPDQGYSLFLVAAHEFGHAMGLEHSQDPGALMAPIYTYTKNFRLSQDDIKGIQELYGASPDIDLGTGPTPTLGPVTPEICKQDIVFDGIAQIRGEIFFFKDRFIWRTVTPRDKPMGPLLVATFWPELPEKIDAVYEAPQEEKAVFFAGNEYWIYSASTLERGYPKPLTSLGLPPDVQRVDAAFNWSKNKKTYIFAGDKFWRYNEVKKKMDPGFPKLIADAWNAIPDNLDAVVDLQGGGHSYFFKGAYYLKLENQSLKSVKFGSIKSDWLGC
UniProt P16257, sequence (whole entry, looked up): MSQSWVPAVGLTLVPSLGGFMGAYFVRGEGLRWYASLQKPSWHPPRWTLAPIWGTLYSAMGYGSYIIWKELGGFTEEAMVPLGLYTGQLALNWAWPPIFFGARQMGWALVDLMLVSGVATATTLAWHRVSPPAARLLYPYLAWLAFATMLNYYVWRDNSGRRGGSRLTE

SMILES | target | assay | system | conditions | quantity | value
COc1cc(-c2nc3ccccc3s2)cc(CN(C)Cc2ccccn2)c1O | Cu2+ | – | – | 50 µM, pH 6.6, 1:1 metal:ligand | pCu | 7
C=C1CCC(O)CC1=CC=C1CCCC2(C)C1CCC2C(C)(O)CCCCCC (centres unmarked) | CYP27A1 | substrate | – | 50 µM, 3 h, 0.45% cyclodextrin, 1 µM enzyme | substrate conversion | 18%
[64Cu+2].c1cnc(CNCc2ccc(CN3CCCN4CCNCCCN(CC4)CC3)cc2)nc1 | CXCR4 | – | NOD/SCID mouse, U87 and U87-stb-CXCR4 xenografts, pancreas | iv, 450 min, ex vivo | tissue uptake | 1.66 ± 0.09 %ID/g
C=C1CCC(O)CC1=CC=C1CCCC2(C)C1CCC2C(C)(C)O (centres unmarked) | CYP27A1 | substrate | – | 50 µM, 3 h, 0.45% cyclodextrin, 1 µM enzyme | substrate conversion | 0%
C/C=C/C[C@@H](C)[C@@H](O)[C@H]1C(=O)N[C@@H](CC)C(=O)N(C)C(Cc2ccc(C(=O)NCCOCCNC(=O)CC[P+](c3ccccc3)(c3ccccc3)c3ccccc3)cc2)C(=O)N(C)[C@@H](CC(C)C)C(=O)N[C@@H](C(C)C)C(=O)N(C)[C@@H](CC(C)C)C(=O)N[C@@H](C)C(=O)N[C@H](C)C(=O)N(C)[C@@H](CC(C)C)C(=O)N(C)[C@@H](CC(C)C)C(=O)N(C)[C@@H](C(C)C)C(=O)N1C (some centres unmarked) | Peptidyl-prolyl cis-trans isomerase A | – | parallel incubation with rat mitochondria | concentration not given, at IC50 for pore opening | inhibition | 1 ± 1%
[11CH3]c1ccc2nc(C3CCC3)n(-c3ccc4[nH]ncc4c3)c2n1 | Voltage-dependent calcium channel gamma-8 subunit (Rattus norvegicus, UniProt Q8VHW5) | PET | Sprague-Dawley rat, hippocampus | 2.5 min, baseline | maximum SUV | ~0.7
Cc1cccc(C)c1NC(=O)CC(C)NCc1cccc2ccccc12 (centres unmarked) | KCNH2 | potassium current, patch clamp | tsA201 transfected with KCNH2 | 0.2% DMSO | concentration of maximal effect | 100 µM
Cc1cn(CC(=O)N[C@H](C(=O)N[C@H](C(=O)N2CCC[C@H]2C(=O)N[C@H](C(=O)O)C(C)C)[C@@H](C)O)[C@@H](C)O)c(=O)[nH]c1=O | proteinase K | substrate, LC-MS | HEPES buffer | 24 h, 37 °C, initial 0.2 mg/mL, together with: proteinase K 3.2 U/mL | remaining compound | 100.1 ± 0.6%
[64Cu+2].c1ccc(CNCc2ccc(CN3CCCN4CCNCCCN(CC4)CC3)cc2)nc1 | CXCR4 (human) | – | NOD/SCID mice, U87 xenografts, small intestine | 120 min post-injection | tissue uptake | 3.69 ± 1.1 %ID/g
COc1cc(-c2nc3ccccc3s2)cc(CN(Cc2ccccn2)Cc2ccccn2)c1O | Cu2+ | – | – | 50 µM, pH 6.6, 1:1 metal:ligand | pCu | 9.6
CC(C)C[C@H](NC(=O)[C@@H]1CCCN1C(=O)[C@H](CCCNC(=N)N)NC(=O)CNC(=O)[C@H](CCCCNC(=O)CN1CCN(CC(=O)O)CCN(CC(=O)O)CCN(CC(=O)O)CC1)NC(=O)CC[C@@H]1NC(=O)[C@@H](Cc2ccccc2)NC(=O)[C@H](CC(=O)O)NC(=O)CNC(=O)[C@H](CCCNC(=N)N)NC1=O)C(=O)N[C@H](C(=O)N[C@@H](Cc1ccc(O)cc1)C(=O)O)C(C)C [copper-64 labelled] | MMP2 (Homo sapiens, UniProt P08253) | substrate, radio-HPLC | – | – | peptide cleavage | no effect
CNC(=O)c1ccc(N2CCN(Cc3ccc4nc(C)c(=O)[nH]c4c3F)CC2)c([18F])n1 | Poly [ADP-ribose] polymerase 1 (Macaca mulatta, UniProt H9FQ77) | PET | male rhesus monkeys, prefrontal cortex | intravenous, dose not given, baseline | radioactivity uptake | 1.1 SUV
COc1ccc(NC(=O)CN2c3cccc4cccc(c34)S2(=O)=O)cc1OCc1ccncc1 | KCNH2 | ion current, inhibitor | – | – | IC50 | > 30000 nM
CCC(=O)N(C)c1ccc(Cl)c(Cl)c1 | KCNH2 | ion current, inhibitor, patch clamp | HEK293 | 100 µM | inhibition | 27.9%
N#Cc1cc(C(=O)OCC[18F])c(C(F)(F)F)nc1N1CCN(C(=O)Cc2ccccc2)CC1 | P2Y purinoceptor 12 (P2ry12, Mus musculus, UniProt Q9CPV9) | PET | young mouse, 6 weeks, brain | 11.1 MBq, 60 min | SUV | 0.61 ± 0.06
COc1ccc2cc(NC(=O)c3cc(-c4ccncc4)nc4ccccc34)ccc2c1 | CYP3A4 | substrate, LC-MS, item: metabolites M1 plus M2 | baculosomes | – | Km | 0.6 µM
Cc1cccc(Cn2ncc3c4cc(F)c(CN(C)C)cc4n(C)c3c2=O)n1 | Pyruvate kinase PKM (Rattus norvegicus, UniProt P11980) | enzyme activity, activator | rat, retina | intravitreal, 1 µM vitreous concentration | half-life of fast phase | 67.2 h
C=CC(=O)Nc1cc(Nc2nccc(-c3cn(C)c4ccccc34)n2)c(OCC(F)(F)F)nc1N(C)CCN(C)C | CYP3A4 | enzyme activity, inhibitor | human, liver microsomes | 0.33 µM, testosterone probe | activity vs control | 102%
COc1cc2c(CCNC(C)=O)c[nH]c2cc1OS(=O)(=O)O | Abcg2 (mouse) | – | FVB/N wild-type male mice, small intestinal content | oral, 10 mg/kg melatonin, 1 h | concentration | 10000 ± 3500 ng/g
Cc1ccc(O)c2c3c(nn12)CCC(C)(NC(=O)c1ccc(-n2cnc4cc(C(=O)O)ccc42)cc1Cl)C3 (centres unmarked) | factor IXa rat | – | rat | prolonged cuticle bleeding time | enzyme occupancy | > 85%
CCc1nc(N)nc(N)c1C#C[C@H](C)c1cc(-c2ccncc2)ccc1OC | Cytochrome P450 2D6 (CYP2D6, Homo sapiens, UniProt P10635) | enzyme activity, inhibitor, fluorescence | – | – | IC50 | 1600 nM
C/C=C/C[C@@H](C)[C@@H](O)[C@H]1C(=O)N[C@@H](CC)C(=O)N(C)C(Cc2ccc(C(=O)NCCCCCCNC(=O)CCCCC[P+](c3ccccc3)(c3ccccc3)c3ccccc3)cc2)C(=O)N(C)[C@@H](CC(C)C)C(=O)N[C@@H](C(C)C)C(=O)N(C)[C@@H](CC(C)C)C(=O)N[C@@H](C)C(=O)N[C@H](C)C(=O)N(C)[C@@H](CC(C)C)C(=O)N(C)[C@@H](CC(C)C)C(=O)N(C)[C@@H](C(C)C)C(=O)N1C (some centres unmarked) | Peptidyl-prolyl cis-trans isomerase A | – | parallel incubation with rat mitochondria | concentration not given, at IC50 for pore opening | inhibition | 9 ± 1%
CCc1cc(C)nc2c(CC(=O)N(CC)CC)c(-c3ccc(OCC[18F])cc3)nn12 | Tspo (Rattus norvegicus, UniProt P16257) | two-tissue compartment model | rat C6 glioma model, brain | 60 min dynamic PET | K1/k2 ratio | 0.277 mL/cm3

Some of these lines once more:
SMILES | target | assay | system | conditions | quantity | value
C=CC(=O)Nc1cc(Nc2nccc(-c3cn(C)c4ccccc34)n2)c(OCC(F)(F)F)nc1N(C)CCN(C)C | CYP3A4 | enzyme activity, inhibitor | human, liver microsomes | 0.33 µM, testosterone probe | activity vs control | 102%
C=C1CCC(O)CC1=CC=C1CCCC2(C)C1CCC2C(C)(O)CCCCCC (centres unmarked) | CYP27A1 | substrate | – | 50 µM, 3 h, 0.45% cyclodextrin, 1 µM enzyme | substrate conversion | 18%
